Published values pooled from the literature.
Each numbered part is a random draw from the data of one study; scales do not carry over between parts.
UniProt Q2M2I8, sequence (whole entry, looked up): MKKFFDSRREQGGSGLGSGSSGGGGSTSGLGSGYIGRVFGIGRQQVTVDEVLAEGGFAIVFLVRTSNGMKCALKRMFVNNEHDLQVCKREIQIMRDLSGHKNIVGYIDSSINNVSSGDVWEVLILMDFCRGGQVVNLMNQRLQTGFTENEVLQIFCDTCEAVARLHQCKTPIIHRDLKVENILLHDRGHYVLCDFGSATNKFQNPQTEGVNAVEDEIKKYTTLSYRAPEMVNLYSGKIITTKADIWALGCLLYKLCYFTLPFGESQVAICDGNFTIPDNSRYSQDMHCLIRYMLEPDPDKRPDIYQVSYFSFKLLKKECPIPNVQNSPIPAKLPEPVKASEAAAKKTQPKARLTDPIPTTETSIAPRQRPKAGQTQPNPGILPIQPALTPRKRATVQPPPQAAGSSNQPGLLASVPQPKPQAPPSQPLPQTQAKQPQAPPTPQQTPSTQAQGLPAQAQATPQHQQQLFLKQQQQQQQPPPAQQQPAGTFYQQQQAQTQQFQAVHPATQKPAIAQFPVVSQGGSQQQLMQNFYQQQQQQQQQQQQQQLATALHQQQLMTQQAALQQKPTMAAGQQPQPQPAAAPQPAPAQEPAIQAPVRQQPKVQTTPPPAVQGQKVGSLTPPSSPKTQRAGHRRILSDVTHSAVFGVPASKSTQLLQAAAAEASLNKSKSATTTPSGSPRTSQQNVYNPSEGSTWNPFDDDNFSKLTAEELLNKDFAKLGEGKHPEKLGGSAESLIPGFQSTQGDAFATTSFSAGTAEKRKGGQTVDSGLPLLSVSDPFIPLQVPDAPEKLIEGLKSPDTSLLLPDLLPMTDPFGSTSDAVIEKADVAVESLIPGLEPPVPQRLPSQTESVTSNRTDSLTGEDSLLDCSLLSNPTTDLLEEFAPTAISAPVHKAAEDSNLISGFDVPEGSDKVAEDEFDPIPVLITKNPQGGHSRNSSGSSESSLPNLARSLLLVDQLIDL
UniProt P27037, sequence (whole entry, looked up): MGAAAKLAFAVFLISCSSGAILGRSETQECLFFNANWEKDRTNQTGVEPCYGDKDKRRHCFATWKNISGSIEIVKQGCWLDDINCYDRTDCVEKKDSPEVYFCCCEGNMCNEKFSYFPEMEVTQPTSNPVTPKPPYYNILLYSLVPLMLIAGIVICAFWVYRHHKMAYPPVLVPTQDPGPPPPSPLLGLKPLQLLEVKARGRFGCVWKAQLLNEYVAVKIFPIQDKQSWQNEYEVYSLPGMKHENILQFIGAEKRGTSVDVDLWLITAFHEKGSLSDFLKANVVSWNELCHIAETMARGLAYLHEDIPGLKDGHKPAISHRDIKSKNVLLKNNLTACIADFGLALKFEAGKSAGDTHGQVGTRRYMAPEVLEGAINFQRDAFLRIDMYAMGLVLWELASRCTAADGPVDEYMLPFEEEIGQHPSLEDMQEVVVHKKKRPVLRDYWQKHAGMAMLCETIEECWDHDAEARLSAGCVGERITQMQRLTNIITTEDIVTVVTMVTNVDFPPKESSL
UniProt Q52WX2, sequence (whole entry, looked up): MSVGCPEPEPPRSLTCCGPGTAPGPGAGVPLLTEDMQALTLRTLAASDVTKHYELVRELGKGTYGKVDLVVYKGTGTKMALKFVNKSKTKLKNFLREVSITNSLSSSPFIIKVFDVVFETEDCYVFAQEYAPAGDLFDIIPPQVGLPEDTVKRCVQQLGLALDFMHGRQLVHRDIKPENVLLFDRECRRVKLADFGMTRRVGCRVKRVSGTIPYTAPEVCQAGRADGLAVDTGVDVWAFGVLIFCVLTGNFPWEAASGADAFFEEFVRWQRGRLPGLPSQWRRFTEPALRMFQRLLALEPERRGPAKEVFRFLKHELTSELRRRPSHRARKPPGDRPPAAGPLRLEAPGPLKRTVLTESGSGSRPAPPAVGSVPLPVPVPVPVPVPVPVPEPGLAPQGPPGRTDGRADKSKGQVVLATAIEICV
UniProt Q9H1R3, sequence (whole entry, looked up): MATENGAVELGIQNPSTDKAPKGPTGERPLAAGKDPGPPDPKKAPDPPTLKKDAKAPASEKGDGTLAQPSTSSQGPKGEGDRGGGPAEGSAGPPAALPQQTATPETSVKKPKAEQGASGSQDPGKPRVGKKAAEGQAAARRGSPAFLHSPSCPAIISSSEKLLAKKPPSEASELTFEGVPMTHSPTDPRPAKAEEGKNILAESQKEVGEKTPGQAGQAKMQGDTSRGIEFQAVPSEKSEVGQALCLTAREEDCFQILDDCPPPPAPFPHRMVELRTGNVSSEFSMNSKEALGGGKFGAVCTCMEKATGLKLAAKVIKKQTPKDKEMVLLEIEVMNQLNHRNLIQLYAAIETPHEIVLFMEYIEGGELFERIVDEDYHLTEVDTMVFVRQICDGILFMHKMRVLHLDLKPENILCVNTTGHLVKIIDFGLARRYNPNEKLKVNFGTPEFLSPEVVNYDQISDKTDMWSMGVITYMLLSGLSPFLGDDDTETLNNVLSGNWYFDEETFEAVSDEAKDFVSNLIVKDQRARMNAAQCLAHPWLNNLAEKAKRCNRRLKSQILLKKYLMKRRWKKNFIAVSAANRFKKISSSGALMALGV
UniProt P11309, sequence (whole entry, looked up): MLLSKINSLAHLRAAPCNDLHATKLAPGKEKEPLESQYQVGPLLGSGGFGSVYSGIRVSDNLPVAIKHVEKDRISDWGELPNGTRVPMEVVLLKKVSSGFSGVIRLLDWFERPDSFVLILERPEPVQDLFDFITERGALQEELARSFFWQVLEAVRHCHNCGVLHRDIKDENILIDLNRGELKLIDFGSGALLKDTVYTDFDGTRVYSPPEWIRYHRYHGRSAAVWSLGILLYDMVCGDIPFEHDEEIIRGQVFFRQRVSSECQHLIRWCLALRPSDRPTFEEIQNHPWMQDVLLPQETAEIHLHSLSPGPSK

Series 1
Structure (SMILES): CCN1/C(=C/C=C2\CCCC(/C=C/C3=[N+](CC)c4ccccc4C3(C)C)=C2NCCCCCCCCN2CCC(Nc3nc4ccccc4n3Cc3ccc(F)cc3)CC2)C(C)(C)c2ccccc21
Cell line: U-87 MG
Tested at: concentration not given
Relative to: DMSO
assay	log2 fold change
refers to: TET1 mRNA	-3.55
refers to: DKK1 mRNA	-1.39
refers to: VCL mRNA	-1.69
refers to: AMD1 mRNA	-1.09
refers to: MAP1LC3B mRNA	1.85
refers to: CCNB1 mRNA	-2.23
refers to: FAM110B mRNA	2.01
refers to: TNFRSF19 mRNA	-1.65
refers to: GPR35 mRNA	1.98
refers to: TBC1D4 mRNA	-1.42
refers to: TTF2 mRNA	-0.975
refers to: EPPIN-WFDC6 mRNA	-6.03
refers to: ENHO mRNA	-2.87
refers to: KRBOX4 mRNA	0.818
refers to: SPATA17 mRNA	1.92
refers to: SKP2 mRNA	-1.96

Series 2
Structure (SMILES): COc1cc(-c2nc3ccc(C(=O)NCCCN(C)C)cc3n2C2CCC2)cc(OC)c1OC
target	assay	setting	remaining binding [%]
Serine/threonine-protein kinase PLK1 (PLK1, Homo sapiens, UniProt P53350)	binding, competition with immobilised ligand	1 µM	99
Receptor-type tyrosine-protein kinase FLT3 (FLT3, Homo sapiens, UniProt P36888, R834Q)	binding, competition with immobilised ligand	1 µM	80
Serine/threonine-protein kinase Nek5 (NEK5, Homo sapiens, UniProt Q6P3R8)	binding, competition with immobilised ligand	1 µM	99
Serine/threonine-protein kinase SBK1 (SBK1, Homo sapiens, UniProt Q52WX2)	binding, competition with immobilised ligand	1 µM	100
Cyclin-dependent kinase 8 (CDK8, Homo sapiens, UniProt P49336)	binding, competition with immobilised ligand	1 µM	100
Glycogen synthase kinase-3 beta (GSK3B, Homo sapiens, UniProt P49841)	binding, competition with immobilised ligand	1 µM	94
Activin receptor type-2A (ACVR2A, Homo sapiens, UniProt P27037)	binding, competition with immobilised ligand	1 µM	100
Receptor-interacting serine/threonine-protein kinase 1 (RIPK1, Homo sapiens, UniProt Q13546)	binding, competition with immobilised ligand	1 µM	96
Leukocyte tyrosine kinase receptor (LTK, Homo sapiens, UniProt P29376)	binding, competition with immobilised ligand	1 µM	100
Dual specificity mitogen-activated protein kinase kinase 4 (MAP2K4, Homo sapiens, UniProt P45985)	binding, competition with immobilised ligand	1 µM	100
Serine/threonine-protein kinase BRSK2 (BRSK2, Homo sapiens, UniProt Q8IWQ3)	binding, competition with immobilised ligand	1 µM	62
AP2-associated protein kinase 1 (AAK1, Homo sapiens, UniProt Q2M2I8)	binding, competition with immobilised ligand	1 µM	91
Ephrin type-B receptor 1 (EPHB1, Homo sapiens, UniProt P54762)	binding, competition with immobilised ligand	1 µM	71
Tyrosine-protein kinase Lyn (LYN, Homo sapiens, UniProt P07948)	binding, competition with immobilised ligand	1 µM	81
Phosphatidylinositol 4,5-bisphosphate 3-kinase catalytic subunit gamma isoform (PIK3CG, Homo sapiens, UniProt P48736)	binding, competition with immobilised ligand	1 µM	100
Proto-oncogene tyrosine-protein kinase Src (SRC, Homo sapiens, UniProt P12931)	binding, competition with immobilised ligand	1 µM	71
Serine/threonine-protein kinase pim-1 (PIM1, Homo sapiens, UniProt P11309)	binding, competition with immobilised ligand	1 µM	80
Ephrin type-A receptor 1 (EPHA1, Homo sapiens, UniProt P21709)	KINOMEscan	1000 nM	78
NUAK family SNF1-like kinase 1 (NUAK1, Homo sapiens, UniProt O60285)	binding, competition with immobilised ligand	1 µM	96
Cyclin-dependent kinase 13 (CDK13, Homo sapiens, UniProt Q14004)	binding, competition with immobilised ligand	1 µM	61
Myosin light chain kinase 2, skeletal/cardiac muscle (MYLK2, Homo sapiens, UniProt Q9H1R3)	binding, competition with immobilised ligand	1 µM	88
Cyclin-dependent kinase 16 (CDK16, Homo sapiens, UniProt Q00536)	binding, competition with immobilised ligand	1 µM	98

Series 3
SMILES: C[C@@H]1CN(c2ccc(-c3cc(C(=O)NCCOCCOCCOCCOCCOCCOCCNC(=O)/C=C/c4[nH]cc(C(=O)N[C@@H](CC(N)=O)c5ccc(F)c(Cl)c5)c4-c4ccc(Cl)cc4F)ccc3F)cc2NC(=O)c2ccc(F)cc2C(F)(F)F)C[C@H](C)N1C
Read-out: thermal unfolding
Method: differential scanning fluorimetry
Tested at: 5.5 µM
Direction: higher = more unfolded
WDR5: WD repeat-containing protein 5 (WDR5, Homo sapiens, UniProt P61964)
DCAF1: DDB1- and CUL4-associated factor 1 (DCAF1, Homo sapiens, UniProt Q9Y4B6)
UniProt Q9Y4B6, sequence (whole entry, looked up): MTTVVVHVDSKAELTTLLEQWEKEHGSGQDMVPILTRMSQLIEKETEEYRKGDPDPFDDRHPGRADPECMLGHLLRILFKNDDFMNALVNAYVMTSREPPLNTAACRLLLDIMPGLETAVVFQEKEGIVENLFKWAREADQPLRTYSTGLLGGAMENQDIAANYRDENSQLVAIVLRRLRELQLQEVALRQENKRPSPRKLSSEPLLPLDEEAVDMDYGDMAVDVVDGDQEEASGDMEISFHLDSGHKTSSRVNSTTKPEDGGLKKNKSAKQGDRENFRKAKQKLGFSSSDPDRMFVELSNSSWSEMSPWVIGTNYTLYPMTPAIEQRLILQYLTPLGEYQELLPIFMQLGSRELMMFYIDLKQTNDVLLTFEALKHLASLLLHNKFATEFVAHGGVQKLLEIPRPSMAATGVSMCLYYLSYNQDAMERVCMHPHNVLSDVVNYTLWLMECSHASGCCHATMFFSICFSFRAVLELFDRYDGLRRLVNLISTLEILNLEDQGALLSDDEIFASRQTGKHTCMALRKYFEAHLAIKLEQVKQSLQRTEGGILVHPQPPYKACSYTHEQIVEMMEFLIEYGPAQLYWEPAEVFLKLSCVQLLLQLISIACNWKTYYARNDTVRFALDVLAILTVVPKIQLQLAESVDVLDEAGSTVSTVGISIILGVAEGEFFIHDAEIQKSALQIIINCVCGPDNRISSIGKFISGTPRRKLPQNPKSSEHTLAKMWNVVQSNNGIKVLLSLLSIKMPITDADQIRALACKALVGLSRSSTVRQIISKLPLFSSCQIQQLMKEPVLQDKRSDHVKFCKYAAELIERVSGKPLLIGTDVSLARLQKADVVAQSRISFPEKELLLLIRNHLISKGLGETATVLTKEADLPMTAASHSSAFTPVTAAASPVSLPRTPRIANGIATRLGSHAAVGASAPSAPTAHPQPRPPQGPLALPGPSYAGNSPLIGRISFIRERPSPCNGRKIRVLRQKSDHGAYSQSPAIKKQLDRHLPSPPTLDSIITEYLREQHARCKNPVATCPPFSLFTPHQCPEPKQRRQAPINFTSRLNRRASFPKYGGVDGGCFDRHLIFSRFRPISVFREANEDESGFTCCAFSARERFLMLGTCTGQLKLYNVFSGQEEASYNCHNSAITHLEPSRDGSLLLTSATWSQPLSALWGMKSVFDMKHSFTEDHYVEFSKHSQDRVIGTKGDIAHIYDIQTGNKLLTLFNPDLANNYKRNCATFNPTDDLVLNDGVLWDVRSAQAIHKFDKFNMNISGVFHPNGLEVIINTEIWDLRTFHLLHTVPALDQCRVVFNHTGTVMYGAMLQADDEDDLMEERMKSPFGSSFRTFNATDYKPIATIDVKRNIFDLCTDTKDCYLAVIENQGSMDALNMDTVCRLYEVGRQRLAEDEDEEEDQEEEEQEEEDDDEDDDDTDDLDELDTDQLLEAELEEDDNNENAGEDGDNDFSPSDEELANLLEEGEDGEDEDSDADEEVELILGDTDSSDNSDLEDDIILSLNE
target	setting	SYPRO Orange fluorescence [a.u.]
WDR5	44.6 °C	14500
DCAF1	85.61 °C	35300
DCAF1	86.21 °C	34800
DCAF1	29 °C	8130
WDR5	36.8 °C	13800
DCAF1	38.2 °C	11000
WDR5	61.81 °C	15200
WDR5	36.2 °C	13900
DCAF1	65.21 °C	53500
DCAF1	46.6 °C	15400
WDR5	48.6 °C	15800

Series 4
Target: Sodium-dependent neutral amino acid transporter B(0)AT1 (SLC6A19, Homo sapiens, UniProt Q695T7)
UniProt Q695T7, sequence (whole entry, looked up): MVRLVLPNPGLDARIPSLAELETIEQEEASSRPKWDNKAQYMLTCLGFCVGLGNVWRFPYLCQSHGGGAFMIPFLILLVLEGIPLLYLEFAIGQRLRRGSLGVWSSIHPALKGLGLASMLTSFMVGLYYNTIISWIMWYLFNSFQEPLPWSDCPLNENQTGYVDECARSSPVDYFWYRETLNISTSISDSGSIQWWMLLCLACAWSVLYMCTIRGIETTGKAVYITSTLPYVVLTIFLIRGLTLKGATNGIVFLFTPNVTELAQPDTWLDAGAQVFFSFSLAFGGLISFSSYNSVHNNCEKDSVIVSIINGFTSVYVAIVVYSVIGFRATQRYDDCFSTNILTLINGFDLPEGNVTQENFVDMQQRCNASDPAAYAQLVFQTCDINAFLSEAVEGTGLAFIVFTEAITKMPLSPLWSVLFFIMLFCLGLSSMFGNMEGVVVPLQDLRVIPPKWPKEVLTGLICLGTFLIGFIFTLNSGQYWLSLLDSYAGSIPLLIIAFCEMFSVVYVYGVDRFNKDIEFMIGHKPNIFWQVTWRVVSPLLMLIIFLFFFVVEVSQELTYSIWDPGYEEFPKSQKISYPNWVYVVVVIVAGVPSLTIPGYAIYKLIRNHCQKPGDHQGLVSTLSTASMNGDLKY
Method: FLIPR membrane potential
Cell line: CHO-BC
Tested at: concentration not given
Relative to: background subtracted
Compound	remaining activity [%]
CC(C)NC(=O)COc1ccc(I)cc1	9.31
CCNC(=O)COc1cc(C)c(Cl)c(C)c1	3.46
Cc1cc(OCC(=O)NC(C)C)ccc1Cl	8.08
CC(C)NC(=O)COc1ccc(Br)cc1	21.3
Cc1cc(NCC(=O)NC(C)C)cc(C)c1I	-2.56
Cc1cc(OCC(=O)NC(C)C)cc(C)c1I	4.9
Cc1cc(NCC(=O)NC(C)C)cc(C)c1Br	-2.02
CC(C)NC(=O)COc1ccc(Cl)cc1	34.5
CC(C)NC(=O)CSc1ccc([N+](=O)[O-])cc1	38.6
COc1ccc(SCC(=O)NC(C)C)cc1	79.6

Excerpt of the above (series 2):
target	assay	setting	remaining binding [%]
Cyclin-dependent kinase 8 (CDK8, Homo sapiens, UniProt P49336)	binding, competition with immobilised ligand	1 µM	100
Glycogen synthase kinase-3 beta (GSK3B, Homo sapiens, UniProt P49841)	binding, competition with immobilised ligand	1 µM	94
Activin receptor type-2A (ACVR2A, Homo sapiens, UniProt P27037)	binding, competition with immobilised ligand	1 µM	100
Receptor-interacting serine/threonine-protein kinase 1 (RIPK1, Homo sapiens, UniProt Q13546)	binding, competition with immobilised ligand	1 µM	96
Leukocyte tyrosine kinase receptor (LTK, Homo sapiens, UniProt P29376)	binding, competition with immobilised ligand	1 µM	100
Dual specificity mitogen-activated protein kinase kinase 4 (MAP2K4, Homo sapiens, UniProt P45985)	binding, competition with immobilised ligand	1 µM	100
